Assay results gathered from unrelated publications.
A part holds a random share of what one study measured.

Sample 1
Target: Histone acetyltransferase KAT6A, both winged helices, GST fusion (KAT6A, Homo sapiens, UniProt Q92794, residues 1-181)
Technique: protein binding microarray
Form: double-stranded DNA, one strand shown
Medium: in vitro
Tested at: not given
Setting: 8-mer, flanks averaged, mean of 2 arrays, mostly near background
Baseline: not given
Direction: higher = stronger binding
Endpoint: E-score
Residues (chain): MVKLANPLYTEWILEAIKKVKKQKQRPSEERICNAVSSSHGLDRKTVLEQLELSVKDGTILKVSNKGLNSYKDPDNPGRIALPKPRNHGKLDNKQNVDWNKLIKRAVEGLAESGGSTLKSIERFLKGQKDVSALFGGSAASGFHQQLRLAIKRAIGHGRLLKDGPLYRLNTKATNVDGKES
CTTGATAC: -0.0868
GCGCGTTA: 0.35
CAGATCAA: -0.121
CTTATTAA: -0.155
CTGACAAC: -0.0229

Sample 2
Target: Interferon regulatory factor 5, full length, phosphomimetic (IRF5, Homo sapiens, UniProt Q13568-2, residues 1-514, K96S/S451D/S453D/S456D/S462D)
Technique: protein-binding microarray
Form: double-stranded DNA, one strand shown
Medium: in vitro
Tested at: 250 nM
Setting: 60-bp whole probe
Added: salmon DNA 0.4 mg/ml
Baseline: random background probes
Direction: higher = stronger binding
Endpoint: log fluorescence
Shared flanks, not repeated: GCCTAGCAC … GTCTTGATTCGCTTGACGCTGCTG
GACGAACTGAGACTTGAGACGTGCTAG: -0.474 z-score
AACCGCACAGAACTAAAACAGTGCTAG: 0.217 z-score
GACGGTTTCGTTTTCGGGACGTGCTAG: 8.04 z-score
GACGGTTTCATTATCCTGACGTGCTAG: 2.93 z-score
GACGGTTTCCAACTGCTGACGTGCTAG: 0.2 z-score
GCCTTTTATTTGAAAGAAATGTGCTAG: 0.611 z-score
TTAGATATCGGGTTTCGCTTAGTGCTA: 5.54 z-score

Sample 3
Target: Prothrombin, mature alpha-thrombin (F2, Homo sapiens, UniProt P00734)
Technique: aptamer microarray, sandwich
Form: DNA with 2'F-ANA
Medium: in vitro
Tested at: 200 nM
Setting: whole 15-mer aptamer, many near background
Added: Cy3 exosite-II aptamer, 400 nM
Direction: higher = stronger binding
Endpoint: mean fluorescence intensity
Oligonucleotide: GGTTGGTGTGGTTGG
2'F-ANA at 3 4 7 8 10 14 15: 225 a.u.
2'F-ANA at 3 4 5 6 8 9 10 11 12 14 15: 54.5 a.u.
2'F-ANA at 3 4 8 9 11 13: 499 a.u.
2'F-ANA at 3 5 7 8 14: 81.6 a.u.
2'F-ANA at 3 4 6 7 9 10 11 15: 242 a.u.

Other studies, line by line
PhoQ, residues 284 288 289 292 302 303 AGCYAI — fold induction (PhoP, residues 12 14 15 18 19 NHFRA (Escherichia coli, UniProt P23836); Sort-seq, measured: YFP reporter; E. coli; PhoQ-PhoP variant library, added: 10 µM Mg2+; baseline: high Mg2+ state, higher = stronger signaling): 3.06
